Assay results collected from several papers.
Parts stem from different laboratories: compare values within a part only. Changes are numbered by the printed parent chain.

Series 1
Target: Prothrombin, mature alpha-thrombin (F2, Homo sapiens, UniProt P00734)
Method: aptamer microarray, sandwich
Form: DNA with 2'F-ANA
Sample: in vitro
Concentration: 200 nM
Notes: whole 15-mer aptamer, many near background
With: Cy3 exosite-II aptamer, 400 nM
Direction: higher = stronger binding
Quantity: mean fluorescence intensity
Sequence: GGTTGGTGTGGTTGG
2'F-ANA at 1 4 6 10 14: 43.6 a.u.
2'F-ANA at 2 4 7 8 9 11 15: 278 a.u.
2'F-ANA at 3 4 5 6 7 9 10 11 13: 52.6 a.u.
2'F-ANA at 3 4 5 6 10 11 12 13 15: 73.3 a.u.
2'F-ANA at 1 2 3 4 5 7 8 10 11 12 13: 49.6 a.u.
2'F-ANA at 1 4 7 8 12 15: 419 a.u.
2'F-ANA at 2 3 5 7 8 11: 114 a.u.
2'F-ANA at 7 9 12 13 15: 681 a.u.
2'F-ANA at 1 4 5 6 7 9 12 13 14: 43.9 a.u.
2'F-ANA at 1 2 3 4 6 8 10 13 14 15: 58.2 a.u.
2'F-ANA at 4 5 6 9 10 12: 50.8 a.u.
2'F-ANA at 6 9 10 11 12 13 14 15: 98.7 a.u.
2'F-ANA at 1 2 3 6 7 9 10 12 14: 58.4 a.u.
2'F-ANA at 1 3 4 6 8: 249 a.u.
2'F-ANA at 1 2 3 7 8 10 11 12 14 15: 61.2 a.u.
2'F-ANA at 3 4 5 7 8 9 14: 80.7 a.u.
2'F-ANA at 1 7 8 9 11 14: 230 a.u.
2'F-ANA at 1 7 8 10 11: 69.7 a.u.
2'F-ANA at 3 4 6 8 9 11 15: 482 a.u.
2'F-ANA at 1 3 4 10 11 12 14: 50.6 a.u.
2'F-ANA at 2 5 6 10 11 12 13 14 15: 60.9 a.u.
2'F-ANA at 2 6 8 9 11 13: 308 a.u.
2'F-ANA at 1 2 3 5 7 8 9 14 15: 49 a.u.
2'F-ANA at 4 7 8 11 14: 122 a.u.
2'F-ANA at 1 2 7 10 11 12 14 15: 51.3 a.u.

Series 2
Target: ABI1, truncated, D143A, DHFR fusion (Arabidopsis thaliana)
Method: DHFR PCA, deep sequencing
Sample: yeast
Notes: methotrexate growth selection, single substitutions
With: (+)-ABA 0.39 µM
Reference: wild-type fitted maximum
Direction: higher = stronger binding
Quantity: relative binding score
Parent: PYL1, truncated, DHFR fusion (Arabidopsis thaliana); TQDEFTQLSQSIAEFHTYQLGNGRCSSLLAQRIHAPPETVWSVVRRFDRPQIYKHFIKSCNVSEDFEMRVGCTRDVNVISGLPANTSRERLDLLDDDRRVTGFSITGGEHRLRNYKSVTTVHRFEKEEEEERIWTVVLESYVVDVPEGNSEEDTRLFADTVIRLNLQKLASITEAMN
V145M: -26.1%
F124L: 60.1%
C60I: 1.12%
F66M: 13.7%
Q10E: 59.7%
G23H: 12.3%
P83S: 19.8%
F157S: 4.56%
S26P: -8.48%
V143A: 8.79%
E129R: 27.1%
Q7S: 42.8%
E14R: 8.26%
Q167E: 48.2%
S80F: 51.5%
T154E: -3.74%

Series 3
Target: PABPC1L2, full length, GST fusion (mouse, UniProt A0ABA7IW68)
Method: RNAcompete
Form: RNA
Sample: in vitro
Concentration: 20 nM
Notes: 7-mer, probes averaged, single round
Reference: mean of 7-mers
Direction: higher = stronger binding
Quantity: 7-mer Z-score
Residues (chain): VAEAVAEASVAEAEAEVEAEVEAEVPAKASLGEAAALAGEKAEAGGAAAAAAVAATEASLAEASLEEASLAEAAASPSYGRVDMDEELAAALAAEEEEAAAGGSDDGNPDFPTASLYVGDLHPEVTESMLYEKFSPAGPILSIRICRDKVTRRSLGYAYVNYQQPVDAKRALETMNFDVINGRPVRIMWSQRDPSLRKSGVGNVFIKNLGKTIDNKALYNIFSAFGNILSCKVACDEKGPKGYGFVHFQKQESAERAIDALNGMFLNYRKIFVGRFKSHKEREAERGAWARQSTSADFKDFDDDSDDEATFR
AUUGGUC: -0.155
AACCGGC: -0.0391
ACUACAC: -0.0953
CUAAAUG: 0.0877
GCUGUUA: -0.208
GCAACCC: 0.00798
ACCAAGU: -0.115
UGCGAUU: -0.179
CUAUGUU: -0.416
UCUUUCG: -0.389
CUGCCCA: -0.376
ACAUAGC: -0.0718
ACUUGCC: -0.137
CCAGAAC: -0.164
CAUGCGA: -0.0464
UAGAAAC: 0.968
CUCUGGU: -0.34
CCGGGUU: -0.307
UGGUCGA: -0.00833
CACAAUG: -0.106

Series 4
Target: Fragile X messenger ribonucleoprotein 1, C-terminal low-complexity region (Fmr1, Mus musculus, UniProt P35922)
Method: RNA Bind-n-Seq
Form: RNA
Sample: in vitro
Concentration: 200 nM
Notes: whole 134-nt RNA, ends assumed
With: 150 mM KCl
Reference: input library
Direction: higher = stronger binding
Quantity: log2 enrichment
Shared flanks, not repeated: GGGAGUUCUACAGUCCGACGAUC … UGGAAUUCUCGGGUGUCAAGG
GGCAGGAGGAAGAGCGCAGGCGCCGUGAAGAAGAGAUGCGGCGGCAGCAAGAAGAAAUGAUGCGGCGACAGCAGGAAGGAUUCAAGGGAA: 0.551
ACCAUGCAGGUGGGCAUCUUUGGGAAGUGGGGCAAGGGGGGGAUAGGGAAGGGGGUAACACUUUGGGAACAGGUGGUCCCAGGUCGUUUC: 0.558
CCUGUGCUACACAUCGUAUGUACCGAAUCGGGGAAAGGGGAAAAAGGGGUUUUUUUGGGGAAAGUAUUAUGUUACGCCGUUCGGAUCUGC: 0.224
GUCCUGUGCUACACAUCGUAUGUACCGAAUCAAACCCAAACCCCCCCAAACCCCCAAAAAAGUAUUAUGUUACGCCGUUCGGAUCUGCAC: -0.128
GUCCUGUGCUACACAUCGUAUGUACCGAAUCGGGUUUGGGAAAAAAAGGGUUUUUGGGAAAGUAUUAUGUUACGCCGUUCGGAUCUGCAC: 0.0431
CCUGUGCUACACAUCGUAUGUACCGAAUCGGGGCCCCCCGGGGCCCCCCGGGCCCCCCGGAAAGUAUUAUGUUACGCCGUUCGGAUCUGC: -0.981
CAAGUCCUGUGCUACACAUCGUAUGUACCGAAUCGGGAAAGGAAAGGGGAAAGGGAAAGUAUUAUGUUACGCCGUUCGGAUCUGCACUUC: 0.205
AAGUCCUGUGCUACACAUCGUAUGUACCGAAUCGGGCCCGGGGCCCGGGGCCCGGGGAAAGUAUUAUGUUACGCCGUUCGGAUCUGCACU: -0.646
UCCUGUGCUACACAUCGUAUGUACCGAAUCGGAAAAAAGGGAAAAAAGGGGAAAAAAGGGAAAGUAUUAUGUUACGCCGUUCGGAUCUGC: -0.367
UCCUCAAGUCCUGUGCUACACAUCGUAUGUACCGAAUCGGGGUGGGUGGUGGAAAGUAUUAUGUUACGCCGUUCGGAUCUGCACUUCCAG: 0.635
AGGAAAAUGUUUAUAGGAGGCCUUAGCUGGGACACUACAAAGAAAGAUCUGAAGGACUACUUUUCCAAAUUUGGUGAAGUUGUAGACUGC: -0.782
UCAUGGCUAUCAUUAGCCACAGGUACUGCUGAUUAUAAGGCCAGUAAAAUUUUAGUACCUGGAGGUUUGACUCUAAUUUUUGCACUGAUG: -1.69
UGUGCUACACAUCGUAUGUACCGAAUCGGGGAAAAAAAGGGAAAAAAAGGGAAAAAAAGGGGAAAGUAUUAUGUUACGCCGUUCGGAUCU: -0.316
ACCAUGCAGGUGGGCAUCUUUGGGAAGUGGGGCAAGGGGGGGAUAGGGAGGGGGGUAACACUUUGGGAACAGGUGGCCCCAGGUCGUUUC: 0.759

Series 5
Target: CCND3, cyclin fold, Cln2 fusion (human)
Method: yeast growth competition, sequencing
Sample: yeast
Notes: weak parent motif
Reference: not given
Direction: higher = stronger binding
Quantity: normalised enrichment score
Parent: CDKN1A docking peptide (human); SKACRRLFGPVDS; partner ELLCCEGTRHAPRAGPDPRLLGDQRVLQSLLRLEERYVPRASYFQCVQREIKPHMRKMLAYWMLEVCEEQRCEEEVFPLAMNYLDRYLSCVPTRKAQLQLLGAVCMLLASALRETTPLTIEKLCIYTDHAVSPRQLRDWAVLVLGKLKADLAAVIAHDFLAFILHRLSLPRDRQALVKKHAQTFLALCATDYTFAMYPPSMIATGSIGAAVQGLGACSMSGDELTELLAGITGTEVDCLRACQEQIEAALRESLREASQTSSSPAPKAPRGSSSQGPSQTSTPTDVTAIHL
SKACRRLFGPVMS [D12M]: 0.825
SKACCRLFGPVDS [R5C]: -0.0468
SKACRRLFCPVDS [G9C]: 0.245
SKACQRLFGPVDS [R5Q]: 0.155
SPACRRLFGPVDS [K2P]: 0.587
SKACARLFGPVDS [R5A]: -0.00287
SKACRRLIGPVDS [F8I]: 0.288
SKACRRLFIPVDS [G9I]: 0.445
SKACRRDFGPVDS [L7D]: 0.18
SKACHRLFGPVDS [R5H]: 0.0667
SGACRRLFGPVDS [K2G]: 0.348
SKACRKLFGPVDS [R6K]: 0.574
SKACRRLFGLVDS [P10L]: -0.139
SKACERLFGPVDS [R5E]: -0.127
SKACRVLFGPVDS [R6V]: 0.289
SKACRREFGPVDS [L7E]: -0.00611
SKACRRLFGPLDS [V11L]: 0.343
SKACRRLFAPVDS [G9A]: 0.173
SKACDRLFGPVDS [R5D]: -0.259
SKACIRLFGPVDS [R5I]: 0.32
SKACNRLFGPVDS [R5N]: 0.14

Mixed results
PhoQ, residues 284 288 289 292 302 303 AGCYAI — fold induction (PhoP, residues 12 14 15 18 19 IFFTR (Escherichia coli, UniProt P23836); Sort-seq, refers to: YFP reporter; E. coli; PhoQ-PhoP variant library, with: 10 µM Mg2+; reference: high Mg2+ state, higher = stronger signaling): 18.1

For quick reference, copied from above (series 1):
2'F-ANA at 1 2 3 4 5 7 8 10 11 12 13: 49.6 a.u.
2'F-ANA at 1 7 8 10 11: 69.7 a.u.
2'F-ANA at 1 2 3 6 7 9 10 12 14: 58.4 a.u.
2'F-ANA at 1 4 5 6 7 9 12 13 14: 43.9 a.u.
2'F-ANA at 2 4 7 8 9 11 15: 278 a.u.
